Published values gathered from unrelated publications.
Compare with care: the assays were run in different laboratories. ± marks the error that the study gave.
Sequence of UniProt P21729 (whole entry, looked up): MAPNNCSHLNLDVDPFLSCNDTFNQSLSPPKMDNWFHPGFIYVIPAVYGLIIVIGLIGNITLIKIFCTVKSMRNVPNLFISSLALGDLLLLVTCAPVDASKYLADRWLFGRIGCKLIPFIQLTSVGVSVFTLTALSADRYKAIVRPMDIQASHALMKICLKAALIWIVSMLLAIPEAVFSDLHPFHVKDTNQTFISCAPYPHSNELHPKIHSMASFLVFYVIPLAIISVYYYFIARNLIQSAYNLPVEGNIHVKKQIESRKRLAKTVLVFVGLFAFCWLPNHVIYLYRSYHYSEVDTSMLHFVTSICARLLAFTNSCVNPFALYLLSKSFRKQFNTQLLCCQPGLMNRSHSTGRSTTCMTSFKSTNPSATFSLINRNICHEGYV

SMILES = CCCC[C@H](NC(=O)CNC(=O)CNC(=O)c1ccc(NN)nc1)C(=O)N[C@H]1CC(=O)NCCCC[C@@H](C(N)=O)NC(=O)[C@H](Cc2c[nH]c3ccccc23)NC(=O)[C@H](CCCNC(=N)N)NC(=O)[C@@H](Cc2ccccc2)NC(=O)[C@H](Cc2c[nH]cn2)NC1=O [technetium-99m labelled]; system = C57 mouse, B16/F1 melanoma, skin; setting = 2 h, added: NDP-MSH 6.07 nmol blockade; measurement = uptake; result = 0.34 ± 0.13 %ID/g
SMILES = CC/C=C\C/C=C\C/C=C\C/C=C\C/C=C\C/C=C\CCC(=O)Nc1ccn(C2OC(CO)C(O)C2(F)F)c(=O)n1 (stereo not shown); tested on = LOX IMVI; test = NCI-60 screen; measurement = CC50; result = 77.9 µM
SMILES = COc1cc(OC)cc(C2=C3c4ccccc4C(c4ccc(NC(=S)NCCOCCOCCOCCC(=O)N[C@@H](CC(C)C)C(=O)N[C@@H](C)C(=O)N[C@@H](CCCNC(=N)N)C(=O)N[C@@H](CC(C)C)C(=O)N[C@@H](CC(C)C)C(=O)N[C@H](C(N)=O)[C@@H](C)O)cc4)=[N+]3[B-](F)(F)n3c2c2ccccc2c3-c2ccc(NC(=S)NCCNC(=O)CCCC[C@@H]3SC[C@@H]4NC(=O)N[C@@H]43)cc2)c1; system = DMSO; measurement = absorption maximum; result = 650 nm
SMILES = CCCNC(=O)[C@H](CC(C)C)NC(=O)[C@H](Cc1c[nH]cn1)NC(=O)CNC(=O)[C@@H](NC(=O)[C@H](C)NC(=O)[C@H](Cc1c[nH]c2ccccc12)NC(=O)[C@H](CCC(N)=O)NC(=O)[C@@H](Cc1ccccc1)NC(=O)CCCCCNC(=O)CN1CCN(CC(=O)O)CCN(CC(=O)O)CCN(CC(=O)O)CC1)C(C)C [indium-111 labelled]; tested on = Gastrin-releasing peptide receptor (Mus musculus, UniProt P21729); test = biodistribution; system = CF-1 mice, stomach; setting = intravenous, 1 h, added: bombesin 100 µg, blocking; measurement = tissue uptake; result = 0.11 ± 0.03 %ID/g
SMILES = CN[C@](C)(C[18F])C(=O)O; tested on = MDA-MB-468 tumour model; system = host not given, kidney; setting = 30 min, tumour-bearing; measurement = tracer uptake; result = 14 %ID/g
SMILES = CCCC[C@H](NC(=O)CNC(=O)CNC(=O)CNC(=O)c1ccc(NN)nc1)C(=O)N[C@H]1CC(=O)NCCCC[C@@H](C(N)=O)NC(=O)[C@H](Cc2c[nH]c3ccccc23)NC(=O)[C@H](CCCNC(=N)N)NC(=O)[C@@H](Cc2ccccc2)NC(=O)[C@H](Cc2c[nH]cn2)NC1=O [technetium-99m labelled]; system = C57 mouse, B16/F1 melanoma, heart; setting = intravenous, 2 h; measurement = uptake; result = 0.04 ± 0.03 %ID/g
SMILES = CN(C)CC1CCCCC1(O)c1cccc(O)c1 (stereo not shown); tested on = human P-glycoprotein; system = Caco-2 TC7 monolayer; setting = 50 µM, 3 h, apical pH 6.8, basolateral pH 7.4, added: cyclosporine A 10 µM; measurement = Papp A-to-B; result = 5.3 ± 0.5 ×10⁻⁶ cm/s
SMILES = CSCC[C@H](NC(=O)[C@H](CC(C)C)NC(=O)[C@H](Cc1c[nH]cn1)NC(=O)CNC(=O)[C@@H](NC(=O)[C@H](C)NC(=O)[C@H](Cc1c[nH]c2ccccc12)NC(=O)[C@H](CCC(N)=O)NC(=O)CCCCCNC(=O)CNC(=O)CNC(=O)CNC(=O)CSC(C)=O)C(C)C)C(N)=O [technetium-99m labelled]; system = nude mouse, PC-3 xenograft, lung; setting = 90 min; measurement = tissue uptake; result = 1.05 ± 0.19 %ID/g
SMILES = N=C(N)NCCC[C@@H]1NC(=O)[C@H](CCCCNC(=O)CCOCCOCCOCCOCCNC(=O)CN2CCN(CC(=O)O)CCN(CC(=O)O)CCN(CC(=O)O)CC2)NC(=O)[C@@H](Cc2ccccc2)NC(=O)[C@H](CC(=O)O)NC(=O)CNC1=O [indium-111 labelled]; system = female athymic nude mice, blood; setting = intravenous, 3 µCi, 4 h, U-87 MG glioma xenograft; measurement = tissue uptake; result = 0.29 ± 0.02 %ID/g
SMILES = N=C(N)NCCC[C@@H]1NC(=O)[C@H](CCCCNC(=O)c2ccc(CNC34CNCCNCC(NCc5ccc(C(=O)NCCCC[C@@H]6NC(=O)[C@@H](Cc7ccc(O)cc7)NC(=O)[C@H](CC(=O)O)NC(=O)CNC(=O)[C@H](CCCNC(=N)N)NC6=O)cc5)(CNCCNC3)CNCCNC4)cc2)NC(=O)[C@@H](Cc2ccc(O)cc2)NC(=O)[C@H](CC(=O)O)NC(=O)CNC1=O [copper-64 labelled]; test = HPLC; system = nude mouse, U-87 MG xenograft, blood; setting = 1 h post injection; measurement = intact compound; result = > 95%
SMILES = C[C@H](NC(=O)CNC(=O)[C@H](CCC(=O)O)NC(=O)[C@H](CCC(=O)O)NC(=O)[C@H](CC(=O)O)NC(=O)[C@@H]1CCCN1C(=O)[C@H](Cc1ccccc1)NC(=O)[C@H](CS)NC(=O)[C@H](Cc1ccc(O)cc1)NC(=O)CCCNC(=O)CNC(=O)CNC(=O)[C@@H](C)NC(=O)CN)C(=O)N[C@@H](CS)C(=O)N[C@@H](Cc1ccc(O)cc1)C(N)=O [technetium-99m labelled]; test = radio-HPLC; system = human serum; setting = 6 h, 37 °C, serum mix 1:10 v/v; measurement = radiochemical purity; result = 90.57 ± 0.67%
SMILES = CCCC[C@H](NC(=O)CCCCCCCNC(=O)c1ccc(NN)nc1)C(=O)N[C@H]1CC(=O)NCCCC[C@@H](C(N)=O)NC(=O)[C@H](Cc2c[nH]c3ccccc23)NC(=O)[C@H](CCCNC(=N)N)NC(=O)[C@@H](Cc2ccccc2)NC(=O)[C@H](Cc2c[nH]cn2)NC1=O [technetium-99m labelled]; system = C57 mouse, B16/F1 melanoma, lung; setting = intravenous, 4 h; measurement = uptake; result = 0.5 ± 0.19 %ID/g
SMILES = N=C(N)NCCC[C@@H]1NC(=O)[C@H](CCCCNC(=O)CNC(=O)CNC(=O)CNC(=O)CC[C@H](NC(=O)CCOCCOCCOCCOCCNC(=O)CC[C@H](NC(=O)CN2CCN(CC(=O)O)CCN(CC(=O)O)CCN(CC(=O)O)CC2)C(=O)NCCOCCOCCOCCOCCC(=O)N[C@@H](CCC(=O)NCC(=O)NCC(=O)NCC(=O)NCCCC[C@@H]2NC(=O)[C@@H](Cc3ccccc3)NC(=O)[C@H](CC(=O)O)NC(=O)CNC(=O)[C@H](CCCNC(=N)N)NC2=O)C(=O)NCC(=O)NCC(=O)NCC(=O)NCCCC[C@@H]2NC(=O)[C@@H](Cc3ccccc3)NC(=O)[C@H](CC(=O)O)NC(=O)CNC(=O)[C@H](CCCNC(=N)N)NC2=O)C(=O)NCC(=O)NCC(=O)NCC(=O)NCCCC[C@@H]2NC(=O)[C@@H](Cc3ccccc3)NC(=O)[C@H](CC(=O)O)NC(=O)CNC(=O)[C@H](CCCNC(=N)N)NC2=O)NC(=O)[C@@H](Cc2ccccc2)NC(=O)[C@H](CC(=O)O)NC(=O)CNC1=O [indium-111 labelled]; system = female athymic nude mice, brain; setting = intravenous, 3 µCi, 72 h, U-87 MG glioma xenograft; measurement = tissue uptake; result = 0.04 ± 0.02 %ID/g
